Experimental data of several laboratories.
“And” joins repeats or separate records; there may be more than shown. ± marks the error that the study gave. Values after ≈ are worked out from the molar mass of the structure shown.

CC1(C)S[C@@H]2[C@H](NC(=O)[C@H](N)c3ccc(O)cc3)C(=O)N2[C@H]1C(=O)O
zone of inhibition (Bacillus cereus; MTCC 430; 10 µg/mL): 29 mm

CC(C)C[C@H](NC(=O)OCc1ccccc1)C(=O)N[C@H](C=O)C[C@@H]1CCCNC1=O
EC90 (human rhinovirus 16; cytopathic effect, SRB; MRC5; 72 h): 16.8 ± 2.5 µM

O=C(O)c1ccc(O)c(O)c1
IC50 (human immunodeficiency virus 1; viral replication; TZM-bl cells, NL4-3 (CXCR4-tropic); 48 h): > 100 µM

CCCCN(Cc1c(-c2ccccn2)nc2ccc(C)cn12)c1ccc(F)cc1
selectivity index (Leishmania infantum; MHOM/MA(BE)/67/ITMAP263; 120 h; reference: CC50 macrophages over EC50 amastigotes): 3.2

CCOC(=O)CSC1=N/C(=C\c2ccc(C(C)C)cc2)C(=O)N1c1ccccc1
inhibition zone diameter (Bacillus cereus; ATCC 14579; concentration not given): 16 ± 0.55 mm

N#Cc1ccc(N/N=C/c2ccc(-c3ccc(/C=N/Nc4ccc(C#N)cc4)cc3)cc2)cc1
antifungal activity (Candida and Aspergillus; concentration not given, strain panel): inactive

N#Cc1ccc(N2CCN(S(=O)(=O)c3ccc(F)cc3)CC2)cc1NCc1ccncc1
larval mortality (Aedes aegypti; 100 µM, 48 h, 1 instar larvae): > 80%

CN[C@H](CC(C)C)C(=O)N[C@H]1C(=O)N[C@@H](CC(N)=O)C(=O)N[C@H]2C(=O)N[C@H]3C(=O)N[C@H](C(=O)N[C@H](C(=O)O)c4cc(O)cc(O)c4-c4cc3ccc4O)[C@H](O)c3ccc(c(Cl)c3)Oc3cc2cc(c3O[C@@H]2O[C@H](CO)[C@@H](O)[C@H](O)[C@H]2O[C@H]2C[C@](C)(N)[C@H](O)[C@H](C)O2)Oc2ccc(cc2Cl)[C@H]1O
MBC (Streptococcus pyogenes; ATCC 13813; 1 strain): > 32 µg/mL

CC(=O)NC[C@H]1CN(c2ccc(N3CCOCC3)c(F)c2)C(=O)O1
MIC50 (Staphylococcus epidermidis; MRSE; 10 isolates): 1 µg/mL (≈ 2.96 µM)

CC(C)n1ncc2c(C(=O)NCC3(C)CNC3)cc(C3CC3)nc21
cell protection (coxsackievirus A6; CPE; RD; 5 µM): 103% and 99.8%

COc1ccc(S(=O)(=O)Nc2cc(OC)c(NC(=O)CCl)cc2OC)cc1
selectivity index (Leishmania infantum; intracellular amastigote growth; U-937 macrophages and HeLa; reference: IC50 HeLa over IC50 amastigotes): 0.16

Cc1ccc2nc(-c3ccccn3)c(CN(CC(C)C)c3cccc(C(F)(F)F)c3)n2c1
selectivity index (Leishmania infantum; MHOM/MA(BE)/67/ITMAP263; 120 h; reference: CC50 macrophages over EC50 amastigotes): 10

NC[C@H]1O[C@H](O[C@H]2[C@H](O)[C@@H](O[C@H]3O[C@H](CO)[C@@H](O)[C@H](N)[C@H]3O)[C@H](N)C[C@@H]2N)[C@H](O)[C@@H](O)[C@@H]1O
inhibition (Salmonella typhimurium; bacterial growth; concentration not given): 82%

CC(C)(C)[Si](C)(C)OCCCN(c1ccc(F)cc1)c1c(-c2ccccn2)nc2ccccn12
IC50 (Leishmania infantum; macrophages, MHOM/MA(BE)/67/ITMAP263, amastigote): 1.69 µM and 0.32 µM

Nc1nc(-c2ccccc2)nc2[nH]nc(Nc3ccc(C(F)(F)F)cc3)c12
clinical score (coxsackievirus B3; 31-1-93, NMRI mice, CVB3 chronic myocarditis; oral, 100 mg/kg twice daily, day 3, dosed days 0 to 6, score scale 0 to 7; direction not given): 0

CN(c1ccc(F)cc1)c1c(-c2cccc(F)n2)nc2ccccn12
IC50 (Leishmania infantum; macrophages, MHOM/MA(BE)/67/ITMAP263, amastigote): 10.8 µM and 9.19 µM

Cc1ccc(NC(=O)N2Cc3[nH]cnc3C[C@H]2c2nc(-c3ccc4c(c3)OCO4)no2)cc1
median lifespan (Caenorhabditis elegans; N2; 50 µM): 21 days

CC(C)CCC[C@@H](C)[C@H]1CC[C@H]2[C@@H]3CCC4=CC(=O)CC[C@]4(C)[C@H]3CC[C@]12C
relative potency (Leishmania mexicana; mouse bone marrow macrophages, C57BL/6 mice; intracellular amastigotes; reference: Pentostam over compound IC50): ~100

Cc1ccn2c(CNc3ccc(F)cc3)c(-c3ccccn3)nc2c1
IC50 (Leishmania infantum; macrophages, MHOM/MA(BE)/67/ITMAP263, amastigote): 11.6 µM and 12.7 µM

CC(C)(O/N=C(\C(=O)N[C@@H]1C(=O)N2C(C(=O)[O-])=C(C[n+]3ccccc3)CS[C@H]12)c1csc(N)n1)C(=O)O
inhibition (THP-1; pyroptotic LDH release; 2 µM, 40 min, together with: LPS then nigericin): -1.07%

COc1cccn2c(Nc3ccc(F)cc3)c(-c3ccccn3)nc12
IC50 (Leishmania infantum; macrophages, MHOM/MA(BE)/67/ITMAP263, amastigote): 8.3 µM and 8.06 µM

C=C1C(=O)O[C@@]23[C@H]1CC[C@@H](C)[C@@H]2CC[C@@]1(C)O[C@@H]31
inhibition (THP-1; pyroptotic LDH release; 2 µM, 40 min, together with: LPS then nigericin): -13.3%

Repeated from above:
COc1ccc(S(=O)(=O)Nc2cc(OC)c(NC(=O)CCl)cc2OC)cc1
selectivity index (Leishmania infantum; intracellular amastigote growth; U-937 macrophages and HeLa; reference: IC50 HeLa over IC50 amastigotes): 0.16

Cc1ccc2nc(-c3ccccn3)c(CN(CC(C)C)c3cccc(C(F)(F)F)c3)n2c1
selectivity index (Leishmania infantum; MHOM/MA(BE)/67/ITMAP263; 120 h; reference: CC50 macrophages over EC50 amastigotes): 10

Nc1nc(-c2ccccc2)nc2[nH]nc(Nc3ccc(C(F)(F)F)cc3)c12
clinical score (coxsackievirus B3; 31-1-93, NMRI mice, CVB3 chronic myocarditis; oral, 100 mg/kg twice daily, day 3, dosed days 0 to 6, score scale 0 to 7; direction not given): 0
